Assay results collected from several papers.
Numbered parts are unrelated; each lists some results of a single study.

Sample 1 — technique: RNA Bind-n-Seq; molecule type: RNA; medium: in vitro; concentration: 365 nM; baseline: no-protein control; direction: higher = stronger binding
Target: RNA binding protein fox-1 homolog 2, RRM domain, GST-SBP tag (RBFOX2, Homo sapiens, UniProt O43251-10, residues 100-194)
Notes: natural RNA segment, single round, ends assumed
Constant ends, left off below: GGGAGUUCUACAGUCCGACGAUC … UGGAAUUCUCGGGUGCCAA
Construct (chain): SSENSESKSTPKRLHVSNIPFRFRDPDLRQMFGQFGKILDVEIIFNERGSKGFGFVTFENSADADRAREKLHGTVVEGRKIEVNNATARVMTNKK
Strand | RBNS enrichment (R)
GGUUUGUCCCAGCUGAAGUGAAGCAAGAGAGUUUGAAUUAAUUUUUCCAUUAUAAUGUUUUCGCAUGUCUGCCUCUAAAACUGUGAUUUUCAAGCUUUAGCGUGCAUCAG | 8.02
UAGGCUAAUGAUGUUCACUCAUUCUUUGAGGCAGUAGUUACCUAGGCAGACACUUUAGGUUGGUACUUUUAUUCUAAAAGCCUUUUUAAGGGUAAUCUUCCUUCUCUGAU | 0.231
UAAUUAAAAAAAUGCCUGUAUGCCUUUUUUUGGUCGGAUUGUAAAUAAAUAUACCAUUGUCCUACUGUUUUGUCUUGAAUCUCAUGCAGGGGUUGGAGGUCUGAGGUGAG | 2.37
UUGAGUUGAGAGCUUUUUUAGGUUUGAGGGGCUUGAUUUUUUUGUAAAUAAAAUUAUGCUUUGUGGCUAUCCAUCAACAUAAGUAUAAAAAGAAAGAACGCUUCAACCCC | 0.292
AUGGAGAUGUUGCGUUACUAUGGAGCUUACAUGAAAUGGGUAGCAUAUAGUUAAAGGUCGUGACAAAAACUAUAACAUAACCUUGGACUUUUUCCACGGGGUCCUUUUAU | 0.985
CCGUAGAUUAGCCUUUAGAAGUCAGUGUGGUGGCCGGCAGUGAAGUUUUCUUCACUAACAUUUAUUACCCUAGAUUAUUCAUGGGAAUCUGGAACUGUUGGACACAGUUG | 0.209
UGCUGUGUGGGUACUCCAAGUGCUGACUUAGGAUAUUAAUGUGCUGCAACACAUUUGUCACCAGGCUUUGAAGGUGACAGCCUGACAAUGUGUUGGAGACACUUCUGAAG | 4.18
CGGAUUUGUCUGCAAGACUUUCUCCACGUGCCCUUGACAUUGGAAUCACUUGUGGGGCCUCCUAGGGUGUUUGGAGGUGAUAUGGUGUCUAUCAUGUGCAUAGGCAGAAG | 0.537
CUGACUUUUGGCUCCCUCGCCCUAAGAGGCUCUUCCUCUCUUUUGCUCAUCCACCUUCACACCACUUGUGAGCUGACCCCCAGGAACAGCUUGGCUGUUCCACCAGAGCA | 0.607
UACCCCGGGAAAUCCCUGUGGCCAGUUUGAACACCCCUGCUGUAACCUUCCCUCUGUUCCAUGGUCUUUGUGAACCUGCUUAGAGGUAUAGUUUUGAUAACCACAGUUUU | 0.3
UCAAAUUAAAGUAGGGCACAUGCCAAGGAGGUUCUCACCUCCCUAAAGAAGGGACUUGAAUUUUAGGGACUUUAAUUCACCCUUUCCUUCAAUCCAGCUUUCCCCCUUCU | 0.388
UAAAAAAAAAAAAAGGAUUUGAAACCAUAAAGUGUUCUGAAGAAAUUAAGUCUAUAAAAAGCAUACUUUCUUUUUUCUUUUCCUUUUUUCCCUCCACAGACAAUGUCCUC | 0.406

Sample 2 — technique: RNA Bind-n-Seq; molecule type: RNA; medium: in vitro; concentration: 200 nM; notes: whole 134-nt RNA, ends assumed; together with: 150 mM LiCl; baseline: input library; direction: higher = stronger binding; each molecule: 7-deaza-guanosine replaces G
Target: Fragile X messenger ribonucleoprotein 1, C-terminal low-complexity region (Fmr1, Mus musculus, UniProt P35922)
Constant ends, left off below: GGGAGUUCUACAGUCCGACGAUC … UGGAAUUCUCGGGUGUCAAGG
Strand | log2 enrichment
GCAGGAAGUAAAAACAAAUGUAAAUGCUUCGGAUAGUGGCAGGGGUGGGGGUUGCUAAGGAAAGGGUGGGAUGGGAGUGGGUAAAGAGUU | 1.44
AGUCCUGUGCUACACAUCGUAUGUACCGAAUCAAACCCAAACCCCCAAAUUUUUAAAAAAGUAUUAUGUUACGCCGUUCGGAUCUGCACU | 1.39
CAAGUCCUGUGCUACACAUCGUAUGUACCGAAUCGGGCCGGGGCCGGGGCCGGGGAAAGUAUUAUGUUACGCCGUUCGGAUCUGCACUUC | -0.0111
UGUGGGUCCUCCUGCACCUGGUGCUGGCCUUCCUGUCCCUGCGCUCUUUGACAGCCUCCUGACCUGUAGGACGAGGGAUUCCUUGUUCUU | 0.953
UCCUGUGCUACACAUCGUAUGUACCGAAUCGGUUUUUUGGGUUUUUUGGGGUUUUUUGGGAAAGUAUUAUGUUACGCCGUUCGGAUCUGC | -0.136
UGGGAGGUGGAUUUUGUUUAUUUUUUUGGCUCAUUUCCAGGGGUGGGAAUUUUUUUUUAAUAUGUGUCAUGAAUAAAGUUGUUUUUGAAA | 0.399
UGGCCCUGGUGGCAUGCGGGGAGGAAGAGGUGGCCUCAUGAAUCGUGGUGGUCCCGGUGGAAUGUUCAGAGGUGGCCGUGGUGGAGACAG | -0.253
GUGCUACACAUCGUAUGUACCGAAUCGGGGUUUUUUUGGGGUUUUUUUGGGGUUUUUUUGGGGAAAGUAUUAUGUUACGCCGUUCGGAUC | 2.11
AAGUCCUGUGCUACACAUCGUAUGUACCGAAUCGGGUUUUUUUGGGUGGGUUUGGGAAAGUAUUAUGUUACGCCGUUCGGAUCUGCACUU | -1.79
GUCCUGUGCUACACAUCGUAUGUACCGAAUCGGGGAGGGGUUUGGGGAAAAAAAGGGGAAAGUAUUAUGUUACGCCGUUCGGAUCUGCAC | -0.678
CUCAAGUCCUGUGCUACACAUCGUAUGUACCGAAUCGGAGGUGGAAAAAAAGGAAAGUAUUAUGUUACGCCGUUCGGAUCUGCACUUCCA | -0.842

Sample 3 — technique: protein-binding microarray; molecule type: double-stranded DNA, one strand shown; medium: in vitro; concentration: 940 nM top; notes: 60-bp whole probe; together with: salmon DNA 0.4 mg/ml; baseline: random background probes; direction: higher = stronger binding; constant ends, left off below: GCCTAGCAC … GTCTTGATTCGCTTGACGCTGCTG
Target: Interferon regulatory factor 5, full length, phosphomimetic (IRF5, Homo sapiens, UniProt Q13568-2, residues 1-514, S451D/S453D/S456D/S462D)
Strand | fitted relative affinity
TCACATCTGCAACATCTAACTGTGCTA | 0.565 z-score
GTCAAACTCACTCATGGCTTTGTGCTA | 0.00296 z-score
TTAGGACTGGGGTCTGGGTTAGTGCTA | -0.59 z-score
GACAGTTTCCTTTCCCTGACGTGCTAG | 3.15 z-score
GACGGTTTCCTAATCCTGACGTGCTAG | 0.682 z-score
TCATATATTTGCTTCAGACTGTGCTAG | 0.68 z-score
TTAGAACTGAGGCTGGATTAGTGCTAG | -0.611 z-score
TCATTTTCATGCTCTTATACTGTGCTA | 1.55 z-score
GACGAATTGGGGTTTCGAGACGTGCTA | 2.11 z-score
TCATATATAATATATATTACTGTGCTA | 0.445 z-score
TTTCAGCTGTTTTTCTCACCGTGCTAG | 4.1 z-score
GAAAATCAACCAGGTGGTGTGTGCTAG | -0.491 z-score
GACAAACTGGGGACTGGAGACGTGCTA | 0.0199 z-score
TTAGGTATCGTTTTCGGTTAGTGCTAG | 6.65 z-score
TTTTTTCTTTTATTAGTGACGTGCTAG | 1.63 z-score
TTAGGTATCAGGACTGGGTTAGTGCTA | 1.32 z-score
GACGATATCGGACTGGAGACGTGCTAG | -0.0918 z-score
ACTAGCTTCCATTTTCTGAAGTGCTAG | 0.903 z-score
TCAGACTTTGGTTTGTAACTGTGCTAG | 0.00506 z-score

Sample 4 — technique: protein binding microarray; molecule type: double-stranded DNA, one strand shown; medium: in vitro; concentration: not given; baseline: not given; direction: higher = stronger binding
Target: Histone acetyltransferase KAT6A, winged helix 1, GST fusion (KAT6A, Homo sapiens, UniProt Q92794, residues 1-85)
Notes: 8-mer, flanks averaged, mean of 2 arrays, mostly near background
Construct (chain): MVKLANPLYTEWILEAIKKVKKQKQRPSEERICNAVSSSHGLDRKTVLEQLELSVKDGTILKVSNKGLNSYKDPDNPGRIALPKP
Strand | E-score
CCAACGAC | -0.0255
AATGGGAG | -0.209
ATAGTAAC | -0.0323
AATCATCA | -0.179
CCCCACTA | -0.173
CACATTCA | -0.144
CAGGGGCA | -0.114
AACTATGA | -0.064
CCCACTGA | -0.314
ATAAACCC | 0.0558
ACGCTTCA | 0.0424
TTCTTCAA | -0.118
CAAGAGCC | 0.0372
CGCACCGC | 0.338
ATCGGATC | 0.0668
ACCACTCT | -0.129
CAAAATGA | -0.0993
AATGCAGG | -0.164
AGCTGCTC | -0.0844
CTGTGATC | -0.165
ATTGAATG | -0.255
ACGGACTC | 0.253
CTATTACA | 0.00454
ATTCAGTA | -0.0595

A few entries again (sample 4):
Strand | E-score
CCCCACTA | -0.173
CACATTCA | -0.144
CAGGGGCA | -0.114
AACTATGA | -0.064
CCCACTGA | -0.314
